Assay results collected from several papers.
± gives the spread as reported.
TNFSF4: TNFSF4 51-183 (Homo sapiens, UniProt P23510)
Sequence of UniProt P23510 (whole entry, looked up): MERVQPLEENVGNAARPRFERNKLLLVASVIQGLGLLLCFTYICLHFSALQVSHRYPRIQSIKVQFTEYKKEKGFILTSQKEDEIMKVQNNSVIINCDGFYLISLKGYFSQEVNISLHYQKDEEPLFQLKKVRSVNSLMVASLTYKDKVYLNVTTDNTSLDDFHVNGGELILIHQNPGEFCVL
CDC48A: CDC48A 1-463 (Arabidopsis thaliana, UniProt P54609)
Sequence of UniProt P54609 (whole entry, looked up): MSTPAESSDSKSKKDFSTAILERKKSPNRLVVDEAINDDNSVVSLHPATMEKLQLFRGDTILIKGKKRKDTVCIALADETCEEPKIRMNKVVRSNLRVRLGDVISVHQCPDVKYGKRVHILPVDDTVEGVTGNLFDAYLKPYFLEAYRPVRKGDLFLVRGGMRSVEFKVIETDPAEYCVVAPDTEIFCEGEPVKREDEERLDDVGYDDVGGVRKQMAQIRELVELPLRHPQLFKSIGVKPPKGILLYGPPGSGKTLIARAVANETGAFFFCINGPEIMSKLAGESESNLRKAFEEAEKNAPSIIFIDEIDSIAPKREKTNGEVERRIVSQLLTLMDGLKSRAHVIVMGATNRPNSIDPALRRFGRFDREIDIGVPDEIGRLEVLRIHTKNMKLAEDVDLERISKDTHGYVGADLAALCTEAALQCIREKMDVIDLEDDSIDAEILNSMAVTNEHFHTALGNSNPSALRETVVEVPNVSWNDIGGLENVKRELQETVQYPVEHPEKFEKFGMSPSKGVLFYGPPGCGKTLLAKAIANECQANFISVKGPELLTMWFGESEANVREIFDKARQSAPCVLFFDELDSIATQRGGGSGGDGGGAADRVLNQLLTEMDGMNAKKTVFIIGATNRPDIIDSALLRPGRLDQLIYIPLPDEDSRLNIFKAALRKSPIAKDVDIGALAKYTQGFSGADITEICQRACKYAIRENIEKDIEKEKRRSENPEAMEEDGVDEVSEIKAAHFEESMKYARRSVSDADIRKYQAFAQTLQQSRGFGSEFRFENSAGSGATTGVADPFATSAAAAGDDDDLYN
ATG9: ATG9 1-255 (Saccharomyces cerevisiae, UniProt Q12142)
Sequence of UniProt Q12142 (whole entry, looked up): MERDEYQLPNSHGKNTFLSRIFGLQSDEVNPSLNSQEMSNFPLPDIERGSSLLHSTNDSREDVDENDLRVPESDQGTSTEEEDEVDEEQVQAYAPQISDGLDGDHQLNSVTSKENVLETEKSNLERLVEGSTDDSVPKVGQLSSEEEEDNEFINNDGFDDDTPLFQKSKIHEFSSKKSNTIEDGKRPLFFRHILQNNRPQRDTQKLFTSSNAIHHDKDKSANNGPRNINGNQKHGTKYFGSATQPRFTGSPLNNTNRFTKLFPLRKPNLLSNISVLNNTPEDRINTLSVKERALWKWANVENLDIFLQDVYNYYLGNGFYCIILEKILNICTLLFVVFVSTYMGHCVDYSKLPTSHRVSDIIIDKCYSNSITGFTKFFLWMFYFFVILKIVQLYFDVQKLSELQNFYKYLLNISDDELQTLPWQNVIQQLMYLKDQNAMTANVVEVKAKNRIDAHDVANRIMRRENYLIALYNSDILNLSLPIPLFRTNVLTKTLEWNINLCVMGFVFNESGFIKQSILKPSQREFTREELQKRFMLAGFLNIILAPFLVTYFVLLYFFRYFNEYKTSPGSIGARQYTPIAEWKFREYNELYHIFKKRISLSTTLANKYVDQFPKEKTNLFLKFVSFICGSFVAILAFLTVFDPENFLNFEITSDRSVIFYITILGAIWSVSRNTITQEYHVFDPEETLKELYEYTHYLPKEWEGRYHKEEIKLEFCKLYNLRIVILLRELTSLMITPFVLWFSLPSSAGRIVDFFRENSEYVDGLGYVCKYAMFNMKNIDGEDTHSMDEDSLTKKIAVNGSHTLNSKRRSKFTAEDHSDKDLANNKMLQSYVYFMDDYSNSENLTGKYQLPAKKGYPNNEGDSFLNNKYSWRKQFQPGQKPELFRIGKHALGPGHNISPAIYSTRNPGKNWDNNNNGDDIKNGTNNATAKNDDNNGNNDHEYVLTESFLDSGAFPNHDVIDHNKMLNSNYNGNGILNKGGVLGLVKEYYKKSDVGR
B1: TNFRSF4 29-170 (Homo sapiens, UniProt P43489); sequence looked up; chain LHCVGDTYPSNDRCCHECRPGNGMVSRCSRSQNTVCRPCGPGFYNDVVSSKPCKPCTWCNLRSGSERKQLCTATQDTVCRCRAGTQPLDSYKPGVDCAPCPPGHFSPGDNQACKPWTNCTLAGKHTLQPASNSSDAICEDRD
B2: PUX2 1-149 (Arabidopsis thaliana, UniProt Q9ZU93); chain MDDVKDKLKGFMKKVNLSSSSGKFKGQGRVLGSSSSSSAPPVNPIQNRFNSSQAPNPTPRPKPNPNPLPEKPLSSSDQKISGSTRNPDHDPVRAPQDGFDPYGAFITSSNRSQNGYSLSMFECPICKNPFTSEEEVSVHVESCLGDTNG
B3: DUSP1 3-148 (Homo sapiens, UniProt P28562); sequence looked up; chain MEVGTLDAGGLRALLGERAAQCLLLDCRSFFAFNAGHIAGSVNVRFSTIVRRRAKGAMGLEHIVPNAELRGRLLAGAYHAVVLLDERSAALDGAKRDGTLALAAGALCREARAAQVFFLKGGYEAFSASCPELCSKQSTPMGLSLP
B4: DTNB 422-535 (Homo sapiens, UniProt O60941-1); sequence looked up; chain PPTDLSFNFDANKQQRQLIAELENKNREILQEIQRLRLEHEQASQPTPEKAQQNPTLLAELRLLRQRKDELEQRMSALQESRRELMVQLEELMKLLKEEEQKQAAQATGSPHTS
B5: PUX5 301-421 (Arabidopsis thaliana, UniProt Q7Y175); chain KNPFQGVGRTLGASGSGSSSAPQASSAPMNVAPAPSRGLVVDPAAPTTSIQLRLADGTRLVSRFNNHHTVRDVRGFIDASRPGGSKEYQLLTMGFPPKQLTELDQTIEQAGIANAVVIQKF
B6: UBASH3A 276-340 (Homo sapiens, UniProt P57075); chain VHYQTLRALFQYKPQNVDELTLSPGDYIFVDPTQQDEASEGWVIGISQRTGCRGFLPENYTDRAS
B7: PUX6 269-435 (Arabidopsis thaliana, UniProt F4IXN6); chain VTYTVTIWRNGFTVDDDPFKSLDDPENAAFLEYMPEDNKFGVPTTTRSTSCSSQTHQELQTLAGSESTSTEPPLTTTQPPSMSSLVVDPAAPTTSIQLILADSTRIVTQFNTHHTIRDIRCFIDTSRPDGSKDYQLLIMGSPPTPLSDFDQTIEKAGIANSVLVQKF
B8: TNFRSF4 29-170 V53A (Homo sapiens, UniProt P43489); sequence looked up; chain LHCVGDTYPSNDRCCHECRPGNGMASRCSRSQNTVCRPCGPGFYNDVVSSKPCKPCTWCNLRSGSERKQLCTATQDTVCRCRAGTQPLDSYKPGVDCAPCPPGHFSPGDNQACKPWTNCTLAGKHTLQPASNSSDAICEDRD
B9: RelA/NFKB1 190-321; chain 1 NTAELKICRVNRNSGSCLGGDEIFLLCDKVQKEDIEVYFTGPGWEARGSFSQADVHRQVAIVFRTPPYADPSLQAPVRVSMQLRRPSDRELSEPMEFQYLPDTDDRHRIEEKRKRTYETFKSIMKKSPFNGP; chain 2 LKIVRMDRTAGCVTGGEEIYLLCDKVQKDDIQIRFYEEEENGGVWEGFGDFSPTDVHRQFAIVFKTPKYKDVNITKPASVFVQLRRKSDLETSEPKPFLYYPE
B10: PUX7 322-468 (Arabidopsis thaliana, UniProt Q94JZ8); chain EDVAKDEEEEELQRALAASLEDNNMKESSDDQSTIIPEEVAVEAVTSAVLPTFPPLPEEPKGGDRSLQCRVGIRLPNGQRLQRNFLKTDTIQLLWSFCYSQLEESERKKPLKLTQAIPGESKTLEYESNLTLEQSGVANSMISATWE
B11: HCK 78-138 (Homo sapiens, UniProt P08631); chain SEDIIVVALYDYEAIHHEDLSFQKGDQMVVLEESGEWWKARSLATRKEGYIPSNYVARVDS
B12: ATG23 full-length, dimer (Saccharomyces cerevisiae, UniProt Q06671); sequence looked up; chain MELNQVLEKKEQILQYLGTLVGLHEKALSDVNSASQVTSIRKDITICLNDLCRINDLLVSHDGLLKREIGSLLRDKQELLELNEREQLLWKERKSWHIKQETDAAPADYVIDKDAIITISSHHRTSLNKYIESVGAENTILSNTDDSDAMIEEVQNAESSADQMIRNYKLLQLSHKQAKSEIIRLETLLRDFKKDNKFIEEELKRQSGRIRSEMGNIDFHLSKIEESKHQLMKRIGFESPLTQEKSLSEKIFNLRLSSADEDYNERQTINMKNFVHMKDLIELKIEDLQEQLMRNKNESSTVLTQRELWLDCQKKVGDLESKLITKLRSSSNSKIPPNEMSEMINSTIQYLNNLLDSSDEKLTTTLISNERDVLSKACEELHSESTTAQDGSSALPSKPIDIHKSHKGSNASSNLKQPSTPSFLVASKSPPKIGISESVVNANKNDAISKKVE
Sequence of UniProt P27986 (whole entry, unmodified, looked up): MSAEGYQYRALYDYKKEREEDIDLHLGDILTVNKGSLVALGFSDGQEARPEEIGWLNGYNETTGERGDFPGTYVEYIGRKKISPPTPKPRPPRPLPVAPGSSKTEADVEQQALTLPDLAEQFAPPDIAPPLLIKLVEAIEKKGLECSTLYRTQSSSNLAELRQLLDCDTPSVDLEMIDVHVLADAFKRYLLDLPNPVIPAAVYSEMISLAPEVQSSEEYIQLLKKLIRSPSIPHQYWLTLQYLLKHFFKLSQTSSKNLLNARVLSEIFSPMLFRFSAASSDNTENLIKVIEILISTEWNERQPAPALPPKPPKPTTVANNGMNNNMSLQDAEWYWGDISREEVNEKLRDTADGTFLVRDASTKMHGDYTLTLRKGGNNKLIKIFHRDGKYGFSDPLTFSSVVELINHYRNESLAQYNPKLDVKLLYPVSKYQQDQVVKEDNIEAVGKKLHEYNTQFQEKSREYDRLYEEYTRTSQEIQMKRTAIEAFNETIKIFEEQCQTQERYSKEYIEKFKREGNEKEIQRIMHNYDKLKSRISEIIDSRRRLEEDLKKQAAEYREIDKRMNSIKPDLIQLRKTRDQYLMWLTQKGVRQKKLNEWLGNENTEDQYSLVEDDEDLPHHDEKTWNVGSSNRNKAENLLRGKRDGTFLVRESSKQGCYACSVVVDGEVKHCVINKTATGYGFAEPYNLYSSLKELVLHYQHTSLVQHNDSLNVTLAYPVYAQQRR
Sequence of UniProt P25963 (whole entry, unmodified, looked up): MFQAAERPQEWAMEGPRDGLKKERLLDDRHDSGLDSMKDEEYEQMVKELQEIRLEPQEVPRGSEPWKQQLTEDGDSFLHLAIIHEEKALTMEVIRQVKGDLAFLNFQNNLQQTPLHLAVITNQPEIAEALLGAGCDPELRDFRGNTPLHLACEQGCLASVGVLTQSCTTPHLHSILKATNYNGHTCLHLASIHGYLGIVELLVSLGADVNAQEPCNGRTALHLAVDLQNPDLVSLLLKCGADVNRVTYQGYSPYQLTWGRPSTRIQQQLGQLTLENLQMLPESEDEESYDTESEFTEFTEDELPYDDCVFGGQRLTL
Sequence of UniProt Q4V3D3 (whole entry, unmodified, looked up): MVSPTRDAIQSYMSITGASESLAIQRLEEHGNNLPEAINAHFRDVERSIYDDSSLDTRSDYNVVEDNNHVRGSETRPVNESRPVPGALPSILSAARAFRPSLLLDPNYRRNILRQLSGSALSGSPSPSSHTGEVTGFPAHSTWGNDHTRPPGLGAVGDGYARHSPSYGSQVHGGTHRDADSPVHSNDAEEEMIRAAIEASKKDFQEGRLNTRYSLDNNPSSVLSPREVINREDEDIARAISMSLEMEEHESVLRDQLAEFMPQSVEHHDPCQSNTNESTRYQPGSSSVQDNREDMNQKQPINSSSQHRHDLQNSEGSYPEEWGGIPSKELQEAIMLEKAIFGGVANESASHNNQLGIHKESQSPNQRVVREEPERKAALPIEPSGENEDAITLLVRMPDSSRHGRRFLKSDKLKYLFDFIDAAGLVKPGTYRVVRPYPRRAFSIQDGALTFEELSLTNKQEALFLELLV
Sequence of UniProt Q16539 (whole entry, unmodified, looked up): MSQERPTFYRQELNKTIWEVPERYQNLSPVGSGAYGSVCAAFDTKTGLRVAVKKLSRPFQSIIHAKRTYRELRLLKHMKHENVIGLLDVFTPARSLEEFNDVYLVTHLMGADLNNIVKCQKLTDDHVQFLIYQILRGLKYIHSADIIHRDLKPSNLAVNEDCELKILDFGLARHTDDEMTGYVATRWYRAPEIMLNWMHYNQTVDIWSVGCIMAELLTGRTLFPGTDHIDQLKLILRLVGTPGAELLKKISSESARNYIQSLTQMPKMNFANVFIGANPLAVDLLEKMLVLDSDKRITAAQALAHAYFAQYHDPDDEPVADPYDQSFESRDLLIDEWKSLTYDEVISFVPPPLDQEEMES
Sequence of UniProt Q86YC2 (whole entry, unmodified, looked up): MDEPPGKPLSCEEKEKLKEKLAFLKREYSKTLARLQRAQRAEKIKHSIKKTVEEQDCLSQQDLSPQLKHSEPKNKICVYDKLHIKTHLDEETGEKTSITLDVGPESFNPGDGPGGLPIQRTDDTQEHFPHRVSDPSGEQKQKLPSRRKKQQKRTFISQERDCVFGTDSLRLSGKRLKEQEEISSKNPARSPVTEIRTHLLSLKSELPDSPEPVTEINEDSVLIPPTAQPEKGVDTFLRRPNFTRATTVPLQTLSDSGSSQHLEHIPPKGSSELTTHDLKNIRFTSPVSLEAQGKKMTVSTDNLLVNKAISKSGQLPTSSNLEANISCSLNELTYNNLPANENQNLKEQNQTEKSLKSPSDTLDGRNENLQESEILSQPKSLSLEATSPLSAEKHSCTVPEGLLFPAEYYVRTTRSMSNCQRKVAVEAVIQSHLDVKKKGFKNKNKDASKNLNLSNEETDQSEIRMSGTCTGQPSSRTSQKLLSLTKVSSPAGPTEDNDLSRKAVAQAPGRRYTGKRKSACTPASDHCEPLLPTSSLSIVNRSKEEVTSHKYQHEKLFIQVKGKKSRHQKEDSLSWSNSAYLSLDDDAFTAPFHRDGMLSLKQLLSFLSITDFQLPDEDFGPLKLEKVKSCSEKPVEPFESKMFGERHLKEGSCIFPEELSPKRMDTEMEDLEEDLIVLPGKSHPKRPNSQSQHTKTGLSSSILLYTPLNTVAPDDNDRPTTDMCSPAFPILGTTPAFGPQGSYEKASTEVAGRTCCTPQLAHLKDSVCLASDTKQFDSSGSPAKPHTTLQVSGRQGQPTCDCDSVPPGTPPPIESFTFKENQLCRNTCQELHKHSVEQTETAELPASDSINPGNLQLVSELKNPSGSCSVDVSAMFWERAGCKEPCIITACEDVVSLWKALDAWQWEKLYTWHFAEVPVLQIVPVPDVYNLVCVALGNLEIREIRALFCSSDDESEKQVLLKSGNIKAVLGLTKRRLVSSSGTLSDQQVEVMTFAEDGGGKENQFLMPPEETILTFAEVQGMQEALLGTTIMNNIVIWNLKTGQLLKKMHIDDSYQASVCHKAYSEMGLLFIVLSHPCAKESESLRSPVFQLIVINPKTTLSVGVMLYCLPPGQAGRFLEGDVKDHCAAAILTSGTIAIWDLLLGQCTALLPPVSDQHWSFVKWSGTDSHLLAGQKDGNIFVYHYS

Peginesatide — mRNA level (UT7/EPO; microarray, refers to: EPAS1 mRNA (probe set 242868_at); 20 nM, 90 min; baseline: vehicle): 4.2 fold
DDRHRIEEKRKRTYETFKSIMKKSPFNGP (Rela 293-321 (Mus musculus, UniProt Q04207); sequence looked up) — ΔH (NFKBIA 67-206 (Homo sapiens, UniProt P25963); ITC; peptide): -4.2 ± 0.2 kcal/mol
PKRSFIESNV — binding intensity (human SCRIB PDZ3-4 tandem (MBP fusion); automated holdup; peptide, crude extract; concentration not given, corrected by standard peak, unit not given; baseline: biotin control resin, higher = stronger binding): 0.95
B1 (TNFRSF4 29-170) — ΔH (TNFSF4; SPR; van't Hoff): -16.9 kcal/mol
LPDTDDRHRIEEKRKRTYETFKSIAKKSPFNGP (Rela 289-321 M313A (Mus musculus, UniProt Q04207); sequence looked up) — ΔH (NFKBIA 67-206 (Homo sapiens, UniProt P25963); ITC; peptide): -3 ± 0.02 kcal/mol
B2 (PUX2 1-149) — ΔH (CDC48A; ITC): -3.61 ± 1.2 kcal/mol
GGWVEKETYY — normalised SPR binding response (human MAGI1-3/6 PDZ construct (MBP fusion); surface plasmon resonance; peptide; concentration not given; higher = stronger binding): 0 normalised RU
B3 (DUSP1 3-148) — ΔH (MAPK14 2-349 (Homo sapiens, UniProt Q16539); ITC): -2.2 ± 0.2 kcal/mol
FGA (Homo sapiens, UniProt P02671) — cross-linked residues (STK38 (Homo sapiens, UniProt Q15208); cross-linking MS; together with: DSSO): K440 to K118
Atg23 full-length, dimer (yeast, UniProt Q06671) — ΔH (ATG9; ITC; pH 8, 20 °C, NaCl 150 mM, independent binding model, together with: TCEP 0.2 mM): -1.77 kcal/mol
PUX7 fragment (Arabidopsis thaliana) — ΔH (CDC48A; ITC): 1.29 ± 0.0956 kcal/mol
FGB (Homo sapiens, UniProt P02675) — cross-linked residues (RBM15B (Homo sapiens, UniProt Q8NDT2); cross-linking MS; together with: DSSO): K51 to K706
B4 (DTNB 422-535) — ΔH (DMD 3365-3685 (Homo sapiens, UniProt P11532-1); ITC; 25 °C): -13.6 kcal/mol
LPDTDDRHRIEEKRKRTYETFKSAMKKSPFNGP (Rela 289-321 I312A (Mus musculus, UniProt Q04207); sequence looked up) — ΔH (NFKBIA 67-206 (Homo sapiens, UniProt P25963); ITC; peptide): -7.3 ± 0.2 kcal/mol
FYN fragment (Homo sapiens) (sequence not shown) — ΔH (PIK3R1 fragment (Homo sapiens); ITC): -14.9 ± 0.741 kcal/mol
colistin — MIC (Klebsiella pneumoniae; broth microdilution; clinical isolate RKI-No_138/16): 64 µg/mL
11-deoxycorticosterone — Kd (human CYP11B2; stopped-flow kinetic modelling; Model, branched, 4-state, CS, together with: no adrenodoxin): 4.5 µM
B5 (PUX5 301-421) — ΔH (CDC48A; ITC): -5.71 ± 0.0956 kcal/mol
B6 (UBASH3A 276-340) — ΔH (PIK3R1 80-724 (Homo sapiens, UniProt P27986); ITC): -1.98 ± 0.167 kcal/mol
B7 (PUX6 269-435) — ΔH (CDC48A; ITC): 1.91 ± 0.0717 kcal/mol
B8 (TNFRSF4 29-170 V53A) — ΔH (TNFSF4; SPR; van't Hoff): -23 kcal/mol
B9 (RelA/NFKB1 190-321) — ΔH (NFKBIA 67-287 (Homo sapiens, UniProt P25963); ITC): -12 kcal/mol
B10 (PUX7 322-468) — ΔH (CDC48A; ITC): 2.08 ± 0.0717 kcal/mol
LPDTDDRHRIEEKRKRTYETFKSIMKKSPFNGP (Rela 289-321 (Mus musculus, UniProt Q04207); sequence looked up) — ΔH (NFKBIA 67-206 (Homo sapiens, UniProt P25963); ITC; peptide): -3.7 ± 0.03 kcal/mol
BRCA1 coiled-coil domain M1400T (Homo sapiens) — ΔH (PALB2 1-56 (Homo sapiens, UniProt Q86YC2); ITC): -1.8 ± 0.3 kcal/mol
B11 (HCK 78-138) — ΔH (PIK3R1 80-724 (Homo sapiens, UniProt P27986); ITC): -7.05 ± 0.335 kcal/mol
PUX9 (Arabidopsis thaliana, UniProt Q4V3D3) — ΔH (CDC48A; ITC): 5 ± 0.598 kcal/mol
B12 (ATG23 full-length, dimer) — ΔH (ATG9; ITC; 20 °C, NaCl 150 mM): -1.77 kcal/mol

For quick reference, copied from above:
B7 (PUX6 269-435) — ΔH (CDC48A; ITC): 1.91 ± 0.0717 kcal/mol
FYN fragment (Homo sapiens) (sequence not shown) — ΔH (PIK3R1 fragment (Homo sapiens); ITC): -14.9 ± 0.741 kcal/mol
